{"data": "Experimental data from different studies", "note": "Numbered parts are unrelated; each lists some results of a single study."}
{"data": "Sample 1", "target": "Histone acetyltransferase KAT6A, winged helix 1, GST fusion (KAT6A, Homo sapiens, UniProt Q92794, residues 1-85)", "method": "protein binding microarray", "form": "double-stranded DNA, one strand shown", "medium": "in vitro", "tested at": "not given", "setting": "8-mer, flanks averaged, mean of 2 arrays, mostly near background", "baseline": "not given", "reading": "higher = stronger binding", "Residues (chain)": "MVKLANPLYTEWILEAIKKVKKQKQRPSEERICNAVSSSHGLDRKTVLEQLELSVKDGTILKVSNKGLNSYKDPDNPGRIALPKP"}
{"Strand": "GCTTCTGA", "E-score": 0.0684}
{"Strand": "GAATACAC", "E-score": -0.132}
{"Strand": "TGAGTAAA", "E-score": -0.136}
{"Strand": "GCCCCGCC", "E-score": 0.325}
{"Strand": "ATCTCTTC", "E-score": -0.137}
{"Strand": "AGTTATCC", "E-score": -0.106}
{"Strand": "AGACATAA", "E-score": -0.0274}
{"Strand": "AACGAATT", "E-score": -0.201}
{"Strand": "CTGACTAC", "E-score": -0.0287}
{"Strand": "AGGAACTG", "E-score": -0.0929}
{"Strand": "AGGTAGAC", "E-score": -0.094}
{"data": "Sample 2", "target": "RNA binding protein fox-1 homolog 2, RRM domain, GST-SBP tag (RBFOX2, Homo sapiens, UniProt O43251-10, residues 100-194)", "method": "RNA Bind-n-Seq", "form": "RNA", "medium": "in vitro", "tested at": "365 nM", "setting": "natural RNA segment, single round, ends assumed", "baseline": "no-protein control", "reading": "higher = stronger binding", "all sequences stand within": "GGGAGUUCUACAGUCCGACGAUC … UGGAAUUCUCGGGUGCCAA", "Target sequence (chain)": "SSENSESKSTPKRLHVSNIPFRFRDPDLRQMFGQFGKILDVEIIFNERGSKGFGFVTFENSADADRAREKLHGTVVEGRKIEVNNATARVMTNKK"}
{"Strand": "UUUCGGGAUUCCCAUCCGUCCUGGCGAUCCUGCCAGCAGUGGGUGGGCAGCCUGAGCUCCCUCGGGCUCGCCUGCCAGCCUGGAGUUCUUCCUGUGCUCCUUGAUCACCU", "RBNS enrichment (R)": 0.168}
{"Strand": "CGCCGUCCCACCAGCUUCACUCUCUCCGUCUGUUUUUGCAACUAGGUAUUUCUAACGCCAGCACACUAUUUACAAGAUGGACUUACCUGGCAGACUUGCCCAGGUCACCA", "RBNS enrichment (R)": 0.522}
{"Strand": "CCUGUGGUGCUAAAGUACAGUAGAAAGAUGUGUAUACGUUUUAUUUUAAAUUGUACGAAGGGGAAUUUAAAAAUACGUAACUGCUGUUUAUACAUCAGCUCCUUACUGCU", "RBNS enrichment (R)": 0.408}
{"Strand": "ACAAGCAGGCUUGUUUCCACCAAUAGUGCCAAAAAGAUAUUGCCUAAUGUGCACCUGUGAGGUGUAACCCCCCGCUUUGGAGACGAGAUGGCUCUUGUUCAGUCAAGACC", "RBNS enrichment (R)": 0.197}
{"Strand": "UGUGUUGCGUGCCUGCUUAGCAUAUACAAGGGCCUGGGACUGGGCCCCAGUAUGGAAGAAAGACUUAACCUGUGGGAAAAACAAUUAUCUUUUUAAAUAGAGAGCUAUGU", "RBNS enrichment (R)": 4.39}
{"Strand": "AGUGUCCUAAAGGGAGUGCACUUCUUUGAAGCUGGUGUGUUAAUACUAUGUAAUAAAUGGUUAACUUUCAAAUGAUGCUGCUGCCAAAAUUAUAUUAAUAGUGAGUUUCA", "RBNS enrichment (R)": 0.431}
{"Strand": "CCCUAAAGACAAUUCCUGAACCUGCCCCCAGCCUCUUUGGCUGCCAUUUAUGUCGUGUGUGAGUGAGUGAUACGCAGAGUUCUUUACUGCUGUCUGUGGUGUGUGUGCCU", "RBNS enrichment (R)": 0.964}
{"Strand": "UCACAGCCACCUAAGUGCGCGGUGUUUUGUUGUUUGACUGUGUUAGAGAAGUUUGAAUGUUUGUGUCAGUUUUGGGUCAGCCUAGAUAAAGAUGGGAAAGAGGGAGUGUU", "RBNS enrichment (R)": 1.93}
{"data": "Sample 3", "target": "Ras GTPase-activating protein-binding protein 1, C-terminal RGG region (G3BP1, Homo sapiens, UniProt Q13283)", "method": "RNA Bind-n-Seq", "form": "RNA", "medium": "in vitro", "tested at": "1 µM", "setting": "whole 134-nt RNA, ends assumed", "together with": "150 mM KCl", "baseline": "input library", "reading": "higher = stronger binding", "all sequences stand within": "GGGAGUUCUACAGUCCGACGAUC … UGGAAUUCUCGGGUGUCAAGG", "UniProt Q13283, sequence (whole entry, looked up)": "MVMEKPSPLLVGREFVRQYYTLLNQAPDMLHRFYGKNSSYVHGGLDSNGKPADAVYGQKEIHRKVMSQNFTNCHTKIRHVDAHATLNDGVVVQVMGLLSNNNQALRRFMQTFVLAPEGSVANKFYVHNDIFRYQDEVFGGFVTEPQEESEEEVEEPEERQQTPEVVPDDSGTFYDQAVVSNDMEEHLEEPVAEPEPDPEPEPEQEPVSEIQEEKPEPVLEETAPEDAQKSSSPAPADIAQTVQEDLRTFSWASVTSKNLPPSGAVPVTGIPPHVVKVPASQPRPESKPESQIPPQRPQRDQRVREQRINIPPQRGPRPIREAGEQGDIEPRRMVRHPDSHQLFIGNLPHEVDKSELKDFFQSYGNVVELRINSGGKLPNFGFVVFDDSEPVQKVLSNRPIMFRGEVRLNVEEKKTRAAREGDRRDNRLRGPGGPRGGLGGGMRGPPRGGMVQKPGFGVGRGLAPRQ"}
{"Strand": "GUCCUGUGCUACACAUCGUAUGUACCGAAUCGGGUUUUUGGUUUUUGGGGUUUUUGGGGAAAGUAUUAUGUUACGCCGUUCGGAUCUGCA", "log2 enrichment": -0.792}
{"Strand": "AGUCCUGUGCUACACAUCGUAUGUACCGAAUCGGGGUGGGGAAAAAAAGGGGUGGGGAAAGUAUUAUGUUACGCCGUUCGGAUCUGCACU", "log2 enrichment": 1.68}
{"Strand": "CACAGACAAGACGCACCCACACAGACACAGAGGGAAGGGGUUGGGAUGGGGACAGGGUGCACAGCAGGGCGGGGUAGGACCCCAGCCCCU", "log2 enrichment": -0.25}
{"Strand": "ACCAUGCAGGUGGGCAUCUUUGGGAAGUGGGGCAAGGGGGGGAUAGGGAGGGGGGUAACACUUUGGGAACAGGUGGUCUCAGGUCGUUUC", "log2 enrichment": 1.63}
{"Strand": "AGUCCUGUGCUACACAUCGUAUGUACCGAAUCGGGGUUUUUGGGGUUUGGGGUGGGGAAAGUAUUAUGUUACGCCGUUCGGAUCUGCACU", "log2 enrichment": 3.05}
{"Strand": "CCUGUGCUACACAUCGUAUGUACCGAAUCGGGGUUUUUUGGUUUUUUGGGGUUUUUUGGGAAAGUAUUAUGUUACGCCGUUCGGAUCUGC", "log2 enrichment": -1.56}
{"Strand": "CCUCAAGUCCUGUGCUACACAUCGUAUGUACCGAAUCGGGCGGGGCGGCGGGGAAAGUAUUAUGUUACGCCGUUCGGAUCUGCACUUCCA", "log2 enrichment": 0.224}
{"Strand": "CAAGUCCUGUGCUACACAUCGUAUGUACCGAAUCGGAAAGGGAAAGGGGAAAGGGGAAAGUAUUAUGUUACGCCGUUCGGAUCUGCACUU", "log2 enrichment": -0.943}
{"Strand": "CAAGUCCUGUGCUACACAUCGUAUGUACCGAAUCGGUGGAAAAAGGAAAAAAAGGAAAGUAUUAUGUUACGCCGUUCGGAUCUGCACUUC", "log2 enrichment": -1.33}
{"data": "Single results of other studies"}
{"Substance": "PhoQ, residues 284 288 289 292 302 303 AQGLTV", "target": "PhoP, residues 12 14 15 18 19 VQALL (Escherichia coli, UniProt P23836)", "assay": "Sort-seq, item: YFP reporter", "system": "E. coli", "setting": "PhoQ-PhoP variant library, together with: 10 µM Mg2+", "scale": "baseline: high Mg2+ state, higher = stronger signaling", "quantity": "fold induction", "result": 20.2}
{"note": "A few entries again (sample 2):"}
{"Strand": "UUUCGGGAUUCCCAUCCGUCCUGGCGAUCCUGCCAGCAGUGGGUGGGCAGCCUGAGCUCCCUCGGGCUCGCCUGCCAGCCUGGAGUUCUUCCUGUGCUCCUUGAUCACCU", "RBNS enrichment (R)": 0.168}
{"Strand": "CGCCGUCCCACCAGCUUCACUCUCUCCGUCUGUUUUUGCAACUAGGUAUUUCUAACGCCAGCACACUAUUUACAAGAUGGACUUACCUGGCAGACUUGCCCAGGUCACCA", "RBNS enrichment (R)": 0.522}
{"Strand": "CCUGUGGUGCUAAAGUACAGUAGAAAGAUGUGUAUACGUUUUAUUUUAAAUUGUACGAAGGGGAAUUUAAAAAUACGUAACUGCUGUUUAUACAUCAGCUCCUUACUGCU", "RBNS enrichment (R)": 0.408}
{"Strand": "ACAAGCAGGCUUGUUUCCACCAAUAGUGCCAAAAAGAUAUUGCCUAAUGUGCACCUGUGAGGUGUAACCCCCCGCUUUGGAGACGAGAUGGCUCUUGUUCAGUCAAGACC", "RBNS enrichment (R)": 0.197}
{"Strand": "UGUGUUGCGUGCCUGCUUAGCAUAUACAAGGGCCUGGGACUGGGCCCCAGUAUGGAAGAAAGACUUAACCUGUGGGAAAAACAAUUAUCUUUUUAAAUAGAGAGCUAUGU", "RBNS enrichment (R)": 4.39}
